Measured values collected from several papers.
Protocols differ between the studies behind these lines. ± marks the error that the study gave.
Cell line: MCF7

`CCCCn1cc(C(=O)O)c(=O)c2cc(F)c(Nc3cc(OC)c(OC)c(OC)c3)c([N+](=O)[O-])c21` has an IC50 of 79.9 µM (cell growth or viability, SRB).
For `CCCCn1cc(C(=O)O)c(=O)c2cc(F)c3[nH]nnc3c21`, the IC50 was 171 µM (cell growth or viability, SRB).
`CCN1CCC2(CC1)C/C(=N\NC(=O)Nc1ccccc1)c1ccccc1O2` gave an IC50 of 6.03 ± 0.27 µM (cell growth, MTT; 48 h).
For `O=C(CCCC(=O)Nc1ccc(-[c-]2cccc2)cc1)NO.[Fe+2].c1cc[cH-]c1`, the IC50 was 5.08 µM (cell growth or viability).
The IC50 of `CC1=[N+]2N=C(c3ccccc3)[O][Pd-2]2([Cl])[O+]=C2Oc3ccccc3C=C21` (stereo not drawn) is reported as 13.4 ± 0.9 µM (cytotoxicity, MTT; 48 h).
`CCCCn1cc(C(=O)O)c(=O)c2cc(F)c(Nc3cccc(OC)c3)c([N+](=O)[O-])c21` gave an IC50 of 123 µM (cell growth or viability, SRB).
`O=C(/C=C/c1ccccc1)Oc1ccc2c(c1)O/C(=C\C=C\c1ccccc1)C2=O` gave an IC50 of over 100 µM (cell growth or viability, MTT; 72 h).
`O=C(CCCCCCC(=O)NC[c-]1cccc1)NO.[Fe+2].c1cc[cH-]c1` has an IC50 of 3.6 µM (cell growth or viability).
For `CN1CCC2(CC1)C/C(=N\NC(=O)Nc1ccc(Cl)cc1)c1ccccc1O2`, the IC50 was 2.9 ± 0.11 µM (cell growth, MTT; 48 h).

A few entries again:
`O=C(CCCCCCC(=O)NC[c-]1cccc1)NO.[Fe+2].c1cc[cH-]c1` has an IC50 of 3.6 µM (cell growth or viability).
